Experimental data collected from several papers.
Each numbered part is a random draw from the data of one study; scales do not carry over between parts. Positions count from the first letter of the parent shown.

Study 1 — target: BATF2, bZIP domain (human); technique: DHFR protein complementation; sample: yeast; relative to: wild-type JUN-FOS pair; direction: higher = stronger binding
Notes: single substitutions, most at no-binding floor
Parent: JUN, bZIP domain (human); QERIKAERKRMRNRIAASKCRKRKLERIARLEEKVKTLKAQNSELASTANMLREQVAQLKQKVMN; partner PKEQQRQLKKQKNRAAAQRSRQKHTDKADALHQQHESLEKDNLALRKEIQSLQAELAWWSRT
Substitution | binding fitness [natural log]
Q58V | -0.349
L52M | -0.693
L45M | -0.655
N42I | -1.42
N42C | -1.11
R30T | -0.141
L31G | -1.31
K34D | -0.303
K34T | -0.395
T37N | -0.178
T48E | -0.397
E33M | -0.504
L52W | -1.18
K36R | -0.181
R53C | -1.38
L52H | -1.41
L31N | -1.32
I28E | -0.33
N42A | -1.26
A46Q | -0.201
A57R | -0.483
A49T | -1.08

Study 2 — technique: universal PBM; molecule type: double-stranded DNA, one strand shown; sample: in vitro; tested at: not given; direction: higher = stronger binding
Target: Sal-like protein 4, full length isoform B (SALL4, Homo sapiens, UniProt Q9UJQ4-2, residues 1-616)
Notes: 8-mer, flanks averaged, mean of replicates
Construct (chain): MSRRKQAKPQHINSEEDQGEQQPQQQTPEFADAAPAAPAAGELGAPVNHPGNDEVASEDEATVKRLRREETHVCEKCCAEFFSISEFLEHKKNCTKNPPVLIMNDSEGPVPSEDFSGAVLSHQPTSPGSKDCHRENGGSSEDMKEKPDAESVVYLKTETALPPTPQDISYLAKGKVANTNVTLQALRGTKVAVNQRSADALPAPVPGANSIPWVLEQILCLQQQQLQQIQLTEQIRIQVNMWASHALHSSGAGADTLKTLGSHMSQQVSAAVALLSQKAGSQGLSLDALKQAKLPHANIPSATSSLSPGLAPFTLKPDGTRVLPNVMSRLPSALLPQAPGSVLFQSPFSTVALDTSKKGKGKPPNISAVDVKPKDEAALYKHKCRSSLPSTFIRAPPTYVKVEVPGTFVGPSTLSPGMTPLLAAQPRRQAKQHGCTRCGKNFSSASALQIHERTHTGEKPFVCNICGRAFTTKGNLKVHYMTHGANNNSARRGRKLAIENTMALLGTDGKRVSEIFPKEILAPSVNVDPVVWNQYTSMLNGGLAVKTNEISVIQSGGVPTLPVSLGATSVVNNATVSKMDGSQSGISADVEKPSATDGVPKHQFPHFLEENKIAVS
Oligonucleotide | E-score
AGGAAACA | 0.0168
CCCGCCAG | -0.171
CTCGGACC | -0.212
CCTTGGAC | -0.184
GCTCCCGA | -0.223
ATCCTTGC | -0.0289
ATCCCTTA | 0.105
AATAAAGT | 0.271
ACAGAAGC | 0.0387
AAACGGTG | 0.016
ACATTCCA | 0.0717
ACCCGTCT | -0.171
AGCTTCAG | -0.0778
CAGCTGTC | -0.12
ACTAATTC | 0.107
ACAGGCCG | -0.198
AATCAAGC | 0.0724
AAGTGCTG | -0.0107
CAGTAATC | -0.0423
ATGTGACG | 0.00454
AAATTAGA | 0.268
GCAGCTAC | -0.153
ACCCGGCA | -0.281

Study 3 — technique: protein-binding microarray; molecule type: double-stranded DNA, one strand shown; sample: in vitro; tested at: 250 nM; notes: 60-bp whole probe; with: salmon DNA 0.4 mg/ml; relative to: random background probes; direction: higher = stronger binding; shared flanks, not repeated: GCCTAGCAC … GTCTTGATTCGCTTGACGCTGCTG
Target: Interferon regulatory factor 7, full length, phosphomimetic (IRF7, Homo sapiens, UniProt Q92985, residues 1-503, S101K/S471D/S472D/S475D/S476D/S477D/S483D/S484D/S487D)
Construct (chain): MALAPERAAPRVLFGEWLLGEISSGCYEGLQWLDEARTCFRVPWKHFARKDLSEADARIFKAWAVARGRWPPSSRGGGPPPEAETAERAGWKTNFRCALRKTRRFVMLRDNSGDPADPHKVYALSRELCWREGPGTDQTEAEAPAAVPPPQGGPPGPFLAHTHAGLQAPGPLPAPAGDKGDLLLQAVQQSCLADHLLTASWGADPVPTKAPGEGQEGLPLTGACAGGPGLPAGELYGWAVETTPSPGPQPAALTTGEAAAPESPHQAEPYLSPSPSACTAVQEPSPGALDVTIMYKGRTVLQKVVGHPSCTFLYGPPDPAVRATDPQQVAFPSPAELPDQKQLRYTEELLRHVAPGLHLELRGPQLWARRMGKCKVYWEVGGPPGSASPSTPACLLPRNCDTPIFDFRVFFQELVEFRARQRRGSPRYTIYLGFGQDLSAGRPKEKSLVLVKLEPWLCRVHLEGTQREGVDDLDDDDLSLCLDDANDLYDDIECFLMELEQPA
Oligonucleotide | log fluorescence
GACGGACTGCTACTGTTGACGTGCTAG | -0.641 z-score
AGAGGCGGGAGGGGGCGGGGGTGCTAG | 4.01 z-score
GACGGTATCGACTACCGGGACGTGCTA | 0.407 z-score
GACGAACTGAGTAGCGAGACGTGCTAG | -0.363 z-score
GACGGTATGCTTTTCCTGACGTGCTAG | -0.158 z-score
GACGGTTGCGGTTCCGGGACGTGCTAG | 0.722 z-score
TATCAGTAGGTAAGGAAAAGGTGCTAG | -0.132 z-score
TCAAATTTCTTCCTCCCACTGTGCTAG | 0.526 z-score
AACGGTATCGACTATCGGGACGTGCTA | 0.102 z-score
GACGGTTTCCTACTGCTCACGTGCTAG | 1.4 z-score
GACGATTCCAGTTTCCAGACGTGCTAG | 1.73 z-score
GACGGTCTCGGTATTGGGACGTGCTAG | 1.6 z-score
TTAGCTCTCAGTCTCGATTAGTGCTAG | 0.92 z-score
GACGGCCTGGGGTTTCGGGACGTGCTA | 0.718 z-score
TCAAGTTTTCTTTTCATACTGTGCTAG | 3.27 z-score
TTAGATTTCATTTCCGATTAGTGCTAG | 1.96 z-score
GACCGACTGCTTTTCCTGACGTGCTAG | 0.152 z-score
TTAGGTTTCCTGTCCCTTTAGTGCTAG | 1.29 z-score
GATGAACTGGGGTATCGAGACGTGCTA | -0.219 z-score

Study 4 — target: CCNE2, cyclin fold, Cln2 fusion (human); technique: yeast growth competition, sequencing; sample: yeast; notes: weak parent motif; relative to: not given; direction: higher = stronger binding
Parent: MICAL3 docking peptide (human); LQLRRQLSFSEDS
Substitution | normalised enrichment score
LQLRRQLSFSCDS [E11C] | 0.622
LQLRRQVSFSEDS [L7V] | 0.38
LQVRRQLSFSEDS [L3V] | 3.34
LQLTRQLSFSEDS [R4T] | -0.0387
LQLRRQFSFSEDS [L7F] | -0.18
LQLRRKLSFSEDS [Q6K] | 0.422
LQLRRQLSFSEKS [D12K] | 0.0815
LQLRRQLSFYEDS [S10Y] | 0.596
LQLRRQLSFSNDS [E11N] | 0.736
LQLRRQLSFSKDS [E11K] | 0.867
LQLRRQLRFSEDS [S8R] | -0.00999
LQLRRQLSFSLDS [E11L] | 0.613
LQLRRQHSFSEDS [L7H] | 0.283
LQLRRQLQFSEDS [S8Q] | 0.532
LQLRRQLSFSENS [D12N] | 0.535
LQLRKQLSFSEDS [R5K] | 0.219
LQLRRALSFSEDS [Q6A] | -0.0525
LQLRRQLSFNEDS [S10N] | 0.266
LQLRRQPSFSEDS [L7P] | -0.0293
LQLRRQLSFSPDS [E11P] | 0.554
LQLRRQLSLSEDS [F9L] | -0.12
LQLGRQLSFSEDS [R4G] | 0.174
LQLRRQLSFSEQS [D12Q] | 0.562
LQLRRQLVFSEDS [S8V] | 0.444

Study 5 — technique: DHFR PCA, deep sequencing; sample: yeast; with: (+)-ABA 4.8 µM; relative to: wild-type fitted maximum; direction: higher = stronger binding
Target: ABI1, truncated, D143A, DHFR fusion (Arabidopsis thaliana)
Notes: methotrexate growth selection, single substitutions
Parent: PYL1, truncated, DHFR fusion (Arabidopsis thaliana); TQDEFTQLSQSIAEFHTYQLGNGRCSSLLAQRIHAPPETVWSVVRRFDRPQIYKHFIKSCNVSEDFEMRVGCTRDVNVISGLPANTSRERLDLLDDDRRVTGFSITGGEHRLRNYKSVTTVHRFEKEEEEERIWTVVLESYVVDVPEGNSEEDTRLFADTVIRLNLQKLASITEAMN
Substitution | relative binding score [%]
E67Q | 73.4
Q167R | 87.5
L169A | -1.87
E4K | 43.4
L94G | -10.6
I162P | 7.93
K116F | -4.46
S42E | 75.7
P36Q | 45.4
P83C | 8.73
Q51S | 7.14
R24M | 60.8
D48R | -8.48
H55G | 79
N165C | -8.18
D153F | 2.55
S104V | -0.886
D159I | -4.83
R45M | -4.67
S171T | 80.4
L28M | 71.4
M68D | 9.27

For quick reference, copied from above (study 2):
Oligonucleotide | E-score
AAGTGCTG | -0.0107
GCAGCTAC | -0.153
AGCTTCAG | -0.0778
ACCCGTCT | -0.171
AAATTAGA | 0.268
ATCCCTTA | 0.105
ACCCGGCA | -0.281
CTCGGACC | -0.212
ACAGAAGC | 0.0387
CCTTGGAC | -0.184
ACAGGCCG | -0.198
ACATTCCA | 0.0717
CCCGCCAG | -0.171
AATAAAGT | 0.271
AATCAAGC | 0.0724
